Published values pooled from the literature.
Each numbered part is a random draw from the data of one study; scales do not carry over between parts.
Sequence of UniProt P34981 (whole entry, looked up): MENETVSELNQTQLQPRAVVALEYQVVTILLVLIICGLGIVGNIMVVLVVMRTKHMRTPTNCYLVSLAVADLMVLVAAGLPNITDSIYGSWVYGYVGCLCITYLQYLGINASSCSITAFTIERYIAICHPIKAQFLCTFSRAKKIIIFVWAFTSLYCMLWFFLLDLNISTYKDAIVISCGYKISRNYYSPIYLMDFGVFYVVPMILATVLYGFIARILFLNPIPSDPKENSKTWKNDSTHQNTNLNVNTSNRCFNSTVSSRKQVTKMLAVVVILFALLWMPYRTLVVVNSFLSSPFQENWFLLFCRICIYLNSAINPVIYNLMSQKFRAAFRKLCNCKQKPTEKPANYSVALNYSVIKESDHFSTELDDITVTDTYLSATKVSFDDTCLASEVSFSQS
Sequence of UniProt Q9UEE5 (whole entry, looked up): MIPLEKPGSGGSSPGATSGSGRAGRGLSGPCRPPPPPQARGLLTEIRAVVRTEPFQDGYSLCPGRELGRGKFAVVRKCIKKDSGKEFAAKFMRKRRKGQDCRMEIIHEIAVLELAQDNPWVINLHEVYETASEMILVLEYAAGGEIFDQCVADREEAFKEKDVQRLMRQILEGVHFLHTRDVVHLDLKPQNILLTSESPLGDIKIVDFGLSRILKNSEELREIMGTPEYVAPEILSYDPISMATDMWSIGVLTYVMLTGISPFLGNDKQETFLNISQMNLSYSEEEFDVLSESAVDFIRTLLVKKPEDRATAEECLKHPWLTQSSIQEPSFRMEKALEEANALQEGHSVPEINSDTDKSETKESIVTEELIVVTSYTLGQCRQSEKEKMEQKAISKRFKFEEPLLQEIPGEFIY
Sequence of UniProt Q8WU08 (whole entry, looked up): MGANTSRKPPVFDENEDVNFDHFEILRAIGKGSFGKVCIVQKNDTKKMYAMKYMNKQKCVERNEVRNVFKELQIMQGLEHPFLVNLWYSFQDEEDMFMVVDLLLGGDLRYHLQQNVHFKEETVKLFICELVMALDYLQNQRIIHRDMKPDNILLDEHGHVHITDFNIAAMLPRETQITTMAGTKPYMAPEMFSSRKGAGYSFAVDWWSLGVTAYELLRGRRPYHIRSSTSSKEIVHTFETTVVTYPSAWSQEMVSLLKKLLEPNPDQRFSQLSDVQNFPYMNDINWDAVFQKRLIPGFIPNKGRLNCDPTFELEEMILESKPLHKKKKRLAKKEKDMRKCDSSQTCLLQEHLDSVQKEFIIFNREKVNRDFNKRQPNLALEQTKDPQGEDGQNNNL
Sequence of UniProt P57059 (whole entry, looked up): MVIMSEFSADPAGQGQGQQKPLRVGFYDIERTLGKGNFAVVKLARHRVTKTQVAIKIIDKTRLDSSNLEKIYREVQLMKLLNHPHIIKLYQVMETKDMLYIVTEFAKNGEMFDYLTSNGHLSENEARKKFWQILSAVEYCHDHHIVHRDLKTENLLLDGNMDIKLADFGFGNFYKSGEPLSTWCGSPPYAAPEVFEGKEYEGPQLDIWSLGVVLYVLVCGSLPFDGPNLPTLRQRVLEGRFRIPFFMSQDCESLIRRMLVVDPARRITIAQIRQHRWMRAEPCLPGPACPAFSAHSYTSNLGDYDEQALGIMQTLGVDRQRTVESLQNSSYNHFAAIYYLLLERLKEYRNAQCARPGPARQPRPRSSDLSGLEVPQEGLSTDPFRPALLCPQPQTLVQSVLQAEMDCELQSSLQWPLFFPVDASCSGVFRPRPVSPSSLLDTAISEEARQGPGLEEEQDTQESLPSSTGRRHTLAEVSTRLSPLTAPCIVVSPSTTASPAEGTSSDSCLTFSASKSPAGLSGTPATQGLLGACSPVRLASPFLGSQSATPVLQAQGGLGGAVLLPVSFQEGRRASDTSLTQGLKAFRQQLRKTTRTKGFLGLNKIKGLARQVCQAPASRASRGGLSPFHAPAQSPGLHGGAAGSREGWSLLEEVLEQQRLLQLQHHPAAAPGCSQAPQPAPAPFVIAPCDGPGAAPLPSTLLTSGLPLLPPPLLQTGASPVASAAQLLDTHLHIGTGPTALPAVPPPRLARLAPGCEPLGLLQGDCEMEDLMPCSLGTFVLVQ
Sequence of UniProt Q9HBY8 (whole entry, looked up): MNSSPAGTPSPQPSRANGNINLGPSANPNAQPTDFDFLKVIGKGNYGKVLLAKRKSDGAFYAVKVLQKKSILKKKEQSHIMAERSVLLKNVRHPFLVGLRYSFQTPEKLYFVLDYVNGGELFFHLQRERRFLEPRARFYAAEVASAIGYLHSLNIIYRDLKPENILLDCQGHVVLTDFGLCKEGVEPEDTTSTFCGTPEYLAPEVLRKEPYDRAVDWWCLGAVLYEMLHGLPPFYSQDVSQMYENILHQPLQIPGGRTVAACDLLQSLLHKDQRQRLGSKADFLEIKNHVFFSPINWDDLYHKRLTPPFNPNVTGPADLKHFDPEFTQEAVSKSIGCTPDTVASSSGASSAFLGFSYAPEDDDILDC
Sequence of UniProt Q13557 (whole entry, looked up): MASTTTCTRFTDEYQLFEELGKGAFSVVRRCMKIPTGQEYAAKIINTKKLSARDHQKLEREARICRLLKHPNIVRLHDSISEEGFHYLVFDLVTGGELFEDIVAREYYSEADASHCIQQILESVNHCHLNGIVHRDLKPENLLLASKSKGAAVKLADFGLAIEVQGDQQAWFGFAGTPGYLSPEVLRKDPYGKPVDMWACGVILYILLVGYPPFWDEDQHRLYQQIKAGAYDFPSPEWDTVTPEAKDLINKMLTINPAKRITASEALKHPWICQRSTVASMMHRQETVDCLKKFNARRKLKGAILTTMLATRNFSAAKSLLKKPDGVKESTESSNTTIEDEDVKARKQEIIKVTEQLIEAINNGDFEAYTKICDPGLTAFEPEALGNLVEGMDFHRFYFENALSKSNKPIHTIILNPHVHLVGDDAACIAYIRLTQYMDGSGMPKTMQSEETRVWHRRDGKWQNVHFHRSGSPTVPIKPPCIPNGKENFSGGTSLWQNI
Sequence of UniProt O94768 (whole entry, looked up): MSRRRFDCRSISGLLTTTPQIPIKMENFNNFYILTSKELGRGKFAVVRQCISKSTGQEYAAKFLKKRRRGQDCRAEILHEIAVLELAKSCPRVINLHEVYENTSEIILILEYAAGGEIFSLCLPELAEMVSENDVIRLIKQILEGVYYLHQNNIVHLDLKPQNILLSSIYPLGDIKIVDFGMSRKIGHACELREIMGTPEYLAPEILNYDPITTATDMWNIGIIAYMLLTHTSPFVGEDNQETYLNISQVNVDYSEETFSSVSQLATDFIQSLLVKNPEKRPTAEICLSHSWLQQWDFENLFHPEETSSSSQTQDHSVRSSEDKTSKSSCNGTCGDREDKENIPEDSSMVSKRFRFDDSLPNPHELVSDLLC
Sequence of UniProt Q96NX5 (whole entry, looked up): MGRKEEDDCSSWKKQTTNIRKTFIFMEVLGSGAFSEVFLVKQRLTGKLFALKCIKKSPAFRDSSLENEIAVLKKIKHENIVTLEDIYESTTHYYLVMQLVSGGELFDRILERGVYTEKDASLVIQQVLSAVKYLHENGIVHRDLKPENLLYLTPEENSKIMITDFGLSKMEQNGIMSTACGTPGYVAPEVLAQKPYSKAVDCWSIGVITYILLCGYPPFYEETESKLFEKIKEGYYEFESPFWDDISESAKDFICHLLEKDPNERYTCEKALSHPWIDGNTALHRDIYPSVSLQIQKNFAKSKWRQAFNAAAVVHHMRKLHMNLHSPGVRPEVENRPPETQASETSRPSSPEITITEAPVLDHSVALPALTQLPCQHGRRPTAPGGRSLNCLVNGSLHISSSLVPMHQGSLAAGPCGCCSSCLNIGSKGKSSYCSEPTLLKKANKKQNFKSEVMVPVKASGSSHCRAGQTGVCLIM
Sequence of UniProt P46092 (whole entry, looked up): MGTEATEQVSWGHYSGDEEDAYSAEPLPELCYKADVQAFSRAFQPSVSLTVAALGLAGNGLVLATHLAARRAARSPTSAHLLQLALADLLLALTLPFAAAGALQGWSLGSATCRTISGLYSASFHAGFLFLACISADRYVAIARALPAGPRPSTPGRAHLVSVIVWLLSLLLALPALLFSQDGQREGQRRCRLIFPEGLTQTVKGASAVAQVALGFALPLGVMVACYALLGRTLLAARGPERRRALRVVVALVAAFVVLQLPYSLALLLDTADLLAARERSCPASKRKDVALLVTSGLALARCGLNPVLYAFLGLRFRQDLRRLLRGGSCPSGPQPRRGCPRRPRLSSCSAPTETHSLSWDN
Sequence of UniProt P48730 (whole entry, looked up): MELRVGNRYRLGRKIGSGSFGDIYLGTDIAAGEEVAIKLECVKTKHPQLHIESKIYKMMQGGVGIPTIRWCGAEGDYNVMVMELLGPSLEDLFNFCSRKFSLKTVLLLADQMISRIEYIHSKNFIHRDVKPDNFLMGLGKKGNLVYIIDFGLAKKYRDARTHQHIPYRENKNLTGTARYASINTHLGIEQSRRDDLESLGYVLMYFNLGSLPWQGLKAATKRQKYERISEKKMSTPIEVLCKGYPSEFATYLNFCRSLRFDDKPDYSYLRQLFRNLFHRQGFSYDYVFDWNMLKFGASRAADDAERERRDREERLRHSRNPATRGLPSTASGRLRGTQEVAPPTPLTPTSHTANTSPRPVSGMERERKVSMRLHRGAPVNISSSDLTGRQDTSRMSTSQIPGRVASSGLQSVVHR

Series 1
SMILES: NC(N)=NC(=O)c1nc(Cl)c(N2CCCCCC2)nc1N
Observed: β-arrestin recruitment
Action: agonist
Method: PRESTO-Tango
Tested at: 10 µM
Reference: untreated
target | fold over basal
Extracellular calcium-sensing receptor (CASR, Homo sapiens, UniProt P41180) | 0.69
C-C chemokine receptor type 8 (CCR8, Homo sapiens, UniProt P51685) | 0.87
Thyrotropin-releasing hormone receptor (TRHR, Homo sapiens, UniProt P34981) | 1.97 fold
Mas-related G-protein coupled receptor member X3 (Homo sapiens, UniProt Q96LB0) | 0.6
Prolactin-releasing peptide receptor (PRLHR, Homo sapiens, UniProt P49683) | 0.85
Adenosine receptor A1 (ADORA1, Homo sapiens, UniProt P30542) | 0.98
5-hydroxytryptamine receptor 4 (HTR4, Homo sapiens, UniProt Q13639) | 1.07
G-protein coupled receptor 78 (GPR78, Homo sapiens, UniProt Q96P69) | 0.83
C-C chemokine receptor type 10 (CCR10, Homo sapiens, UniProt P46092) | 0.86

Series 2
Organism: Sarcocystis neurona
Observed: parasite growth
Tested at: 10 µM
Time: 96 h
Reference: untreated
SMILES | log2 fold change
O=C1CN2Cc3c(ccc(Cl)c3Cl)N=C2N1 | 0.3
CN(C)CCCC1(c2ccc(F)cc2)OCc2cc(C#N)ccc21 (centres unmarked) | -0.0847
C[C@@H]1CN(CCCn2c3ccccc3c3ccccc32)C[C@H](C)N1 | -0.19
CN(C/C=C/C#CC(C)(C)C)Cc1cccc2ccccc12 | 0.39
Cc1onc(-c2c(Cl)cccc2Cl)c1C(=O)N[C@@H]1C(=O)N2[C@@H]1SC(C)(C)[C@@H]2C(=O)O | 0.33
CCC(=O)O[C@]1(C(=O)SCF)[C@H](C)C[C@H]2[C@@H]3C[C@H](F)C4=CC(=O)C=C[C@]4(C)[C@@]3(F)[C@@H](O)C[C@@]21C | -0.12

Series 3
Structure (SMILES): C[C@H](c1ccnc(Nc2nc3ccc(-c4cc(N(C)C)ncn4)cc3[nH]2)c1)N1CCN(C(=O)CC(F)(F)F)CC1
Tested at: 0.1 µM
target | test | remaining binding
Serine/threonine-protein kinase SIK1 (SIK1, Homo sapiens, UniProt P57059) | competition binding | 96%
Tyrosine-protein kinase ABL1, phosphorylated (ABL1, Homo sapiens, UniProt P00519, F317I) | binding | 100%
Serine/threonine-protein kinase 17A (STK17A, Homo sapiens, UniProt Q9UEE5) | binding, competition with immobilised ligand | 40%
RAC-gamma serine/threonine-protein kinase (AKT3, Homo sapiens, UniProt Q9Y243) | cell-free assay, competition with immobilised ligand | 100%
Serine/threonine-protein kinase 24 (STK24, Homo sapiens, UniProt Q9Y6E0) | cell-free assay, competition with immobilised ligand | 64%
SRSF protein kinase 3 (SRPK3, Homo sapiens, UniProt Q9UPE1) | cell-free assay, competition with immobilised ligand | 100%
Mitogen-activated protein kinase 6 (MAPK6, Homo sapiens, UniProt Q16659) | cell-free assay, competition with immobilised ligand | 86%
Phosphorylase b kinase gamma catalytic chain, liver/testis isoform (PHKG2, Homo sapiens, UniProt P15735) | cell-free assay, competition with immobilised ligand | 81%
Non-receptor tyrosine-protein kinase TYK2, JH2 (TYK2, Homo sapiens, UniProt P29597) | cell-free assay, competition with immobilised ligand | 100%
RAC-alpha serine/threonine-protein kinase (AKT1, Homo sapiens, UniProt P31749) | cell-free assay, competition with immobilised ligand | 100%
Interleukin-1 receptor-associated kinase 3 (IRAK3, Homo sapiens, UniProt Q9Y616) | cell-free assay, competition with immobilised ligand | 76%
Serine/threonine-protein kinase Sgk2 (SGK2, Homo sapiens, UniProt Q9HBY8) | cell-free assay, competition with immobilised ligand | 100%
Casein kinase I isoform delta (CSNK1D, Homo sapiens, UniProt P48730) | cell-free assay, competition with immobilised ligand | 89%
Discoidin domain-containing receptor 2 (DDR2, Homo sapiens, UniProt Q16832) | cell-free assay, competition with immobilised ligand | 100%
Calcium/calmodulin-dependent protein kinase type II subunit delta (CAMK2D, Homo sapiens, UniProt Q13557) | cell-free assay, competition with immobilised ligand | 70%
Serine/threonine-protein kinase 16 (STK16, Homo sapiens, UniProt O75716) | cell-free assay, competition with immobilised ligand | 86%
Serine/threonine-protein kinase 17B (STK17B, Homo sapiens, UniProt O94768) | cell-free assay, competition with immobilised ligand | 100%
Dual specificity mitogen-activated protein kinase kinase 3 (MAP2K3, Homo sapiens, UniProt P46734) | cell-free assay, competition with immobilised ligand | 97%
Serine/threonine-protein kinase 32A (STK32A, Homo sapiens, UniProt Q8WU08) | cell-free assay, competition with immobilised ligand | 100%
Citron Rho-interacting kinase (CIT, Homo sapiens, UniProt O14578) | cell-free assay, competition with immobilised ligand | 78%
Serine/threonine-protein kinase Nek4 (NEK4, Homo sapiens, UniProt P51957) | cell-free assay, competition with immobilised ligand | 100%
Calcium/calmodulin-dependent protein kinase type 1G (CAMK1G, Homo sapiens, UniProt Q96NX5) | cell-free assay, competition with immobilised ligand | 76%
Tyrosine-protein kinase Fer (FER, Homo sapiens, UniProt P16591) | cell-free assay, competition with immobilised ligand | 100%

Series 4
Host: mouse
Sample: microsomes or S9
Tested at: 2 µM
Time: 0.5 h
SMILES | remaining compound [%]
CC(C)c1nc2cc(N3CC(=O)C(c4nc(-c5ccccc5)cs4)=C3N)ccc2[nH]1 | 81.7
Cc1cc(C(=O)Nc2nnc(Cc3cccs3)o2)n(C)n1 | 81.3
Cc1ccc(-c2nc3n(CC(=O)Nc4cccc(F)c4)c4c(c(=O)n3n2)CCC4)cc1 | 19.4
Cc1ccc2c(c1)Oc1cc(Cl)c(S(=O)(=O)N3CCc4ccccc4C3)cc1C(=O)N2 | > 100
COCCOc1cc(=O)n2c(c1C(=O)NC1CCCCC1)CCOCC2 | 66.7
O=S(=O)(c1cccc2cccnc12)n1ncc2c(Cl)ncnc21 | 78.2

Series 5
Target: Calcium/calmodulin-dependent protein kinase type II subunit alpha (CAMK2A, Homo sapiens, UniProt Q9UQM7)
Sequence of UniProt Q9UQM7 (whole entry, looked up): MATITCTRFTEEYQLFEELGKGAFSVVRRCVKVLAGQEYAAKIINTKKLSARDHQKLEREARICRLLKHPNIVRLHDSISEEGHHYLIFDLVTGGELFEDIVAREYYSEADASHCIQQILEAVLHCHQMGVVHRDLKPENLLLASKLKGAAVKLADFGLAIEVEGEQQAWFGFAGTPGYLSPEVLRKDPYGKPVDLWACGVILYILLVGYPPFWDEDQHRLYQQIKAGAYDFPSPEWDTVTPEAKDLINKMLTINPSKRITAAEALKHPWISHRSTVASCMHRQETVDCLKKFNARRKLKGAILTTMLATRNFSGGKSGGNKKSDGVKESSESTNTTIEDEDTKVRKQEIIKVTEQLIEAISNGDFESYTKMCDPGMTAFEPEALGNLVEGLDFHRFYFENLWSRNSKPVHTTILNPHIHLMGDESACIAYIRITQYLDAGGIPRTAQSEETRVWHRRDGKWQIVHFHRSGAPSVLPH
Observed: enzyme activity
Action: inhibitor
Tested at: 10 µM
Compound | inhibition [%]
NC(=O)NCCC(=O)O | -9
CSCCC(=O)O | -1
CCOc1ncc(C)c2c1[C@H](c1ccc(C#N)cc1OC)C(C(N)=O)=C(C)N2 | 2
N[C@@H](CCC(=O)O)C(=O)N[C@@H](Cc1c[nH]c2ccccc12)C(=O)O | 4
O=C(O)CP(=O)(O)O | 0
COc1ccc2c(=O)c(-c3ccc(O)cc3)coc2c1 | -15

For quick reference, copied from above (series 3):
target | test | remaining binding
Discoidin domain-containing receptor 2 (DDR2, Homo sapiens, UniProt Q16832) | cell-free assay, competition with immobilised ligand | 100%
Calcium/calmodulin-dependent protein kinase type II subunit delta (CAMK2D, Homo sapiens, UniProt Q13557) | cell-free assay, competition with immobilised ligand | 70%
Serine/threonine-protein kinase 16 (STK16, Homo sapiens, UniProt O75716) | cell-free assay, competition with immobilised ligand | 86%
Serine/threonine-protein kinase 17B (STK17B, Homo sapiens, UniProt O94768) | cell-free assay, competition with immobilised ligand | 100%
